# Published values pooled from the literature.
# Every numbered part comes from another study and shows a few of its results, in no order.
# UniProt P10721, sequence (whole entry, unmodified, looked up): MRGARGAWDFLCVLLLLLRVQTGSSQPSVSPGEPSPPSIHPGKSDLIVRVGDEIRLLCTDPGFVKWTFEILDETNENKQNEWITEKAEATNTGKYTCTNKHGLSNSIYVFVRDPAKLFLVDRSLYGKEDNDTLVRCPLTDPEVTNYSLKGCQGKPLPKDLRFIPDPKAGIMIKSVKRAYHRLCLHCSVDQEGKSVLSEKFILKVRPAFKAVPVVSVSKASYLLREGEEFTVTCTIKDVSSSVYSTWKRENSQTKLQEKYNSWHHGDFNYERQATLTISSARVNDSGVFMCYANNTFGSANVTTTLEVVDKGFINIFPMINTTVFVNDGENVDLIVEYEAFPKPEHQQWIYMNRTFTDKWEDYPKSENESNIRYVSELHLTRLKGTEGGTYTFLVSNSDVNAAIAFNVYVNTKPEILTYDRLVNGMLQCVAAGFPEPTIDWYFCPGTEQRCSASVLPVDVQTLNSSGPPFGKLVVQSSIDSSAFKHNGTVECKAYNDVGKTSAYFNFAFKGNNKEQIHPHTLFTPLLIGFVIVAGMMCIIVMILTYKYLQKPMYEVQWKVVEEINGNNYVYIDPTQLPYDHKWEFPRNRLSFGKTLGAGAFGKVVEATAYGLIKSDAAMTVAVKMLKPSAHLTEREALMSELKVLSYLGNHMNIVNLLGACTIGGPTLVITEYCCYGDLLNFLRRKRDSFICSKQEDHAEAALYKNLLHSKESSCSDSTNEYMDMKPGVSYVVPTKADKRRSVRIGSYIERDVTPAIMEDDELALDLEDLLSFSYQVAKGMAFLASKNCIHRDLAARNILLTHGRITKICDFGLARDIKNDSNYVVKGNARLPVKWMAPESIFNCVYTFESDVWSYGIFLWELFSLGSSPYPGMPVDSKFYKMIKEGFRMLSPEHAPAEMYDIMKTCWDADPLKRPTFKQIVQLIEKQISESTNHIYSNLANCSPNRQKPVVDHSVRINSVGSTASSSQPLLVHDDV
# UniProt Q00537, sequence (whole entry, looked up): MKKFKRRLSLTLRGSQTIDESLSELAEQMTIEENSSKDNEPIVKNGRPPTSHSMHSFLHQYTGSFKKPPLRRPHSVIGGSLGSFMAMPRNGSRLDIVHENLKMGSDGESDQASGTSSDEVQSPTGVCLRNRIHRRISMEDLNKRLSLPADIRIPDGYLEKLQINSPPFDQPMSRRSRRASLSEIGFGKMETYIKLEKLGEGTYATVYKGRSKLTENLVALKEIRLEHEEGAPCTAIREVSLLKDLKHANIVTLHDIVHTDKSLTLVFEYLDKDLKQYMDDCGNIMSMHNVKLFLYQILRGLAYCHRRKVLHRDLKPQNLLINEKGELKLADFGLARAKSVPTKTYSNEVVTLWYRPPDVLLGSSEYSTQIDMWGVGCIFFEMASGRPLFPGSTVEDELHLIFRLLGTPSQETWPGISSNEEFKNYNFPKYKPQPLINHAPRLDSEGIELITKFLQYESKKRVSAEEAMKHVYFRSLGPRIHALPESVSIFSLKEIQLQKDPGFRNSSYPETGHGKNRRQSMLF
# UniProt O75676, sequence (whole entry, looked up): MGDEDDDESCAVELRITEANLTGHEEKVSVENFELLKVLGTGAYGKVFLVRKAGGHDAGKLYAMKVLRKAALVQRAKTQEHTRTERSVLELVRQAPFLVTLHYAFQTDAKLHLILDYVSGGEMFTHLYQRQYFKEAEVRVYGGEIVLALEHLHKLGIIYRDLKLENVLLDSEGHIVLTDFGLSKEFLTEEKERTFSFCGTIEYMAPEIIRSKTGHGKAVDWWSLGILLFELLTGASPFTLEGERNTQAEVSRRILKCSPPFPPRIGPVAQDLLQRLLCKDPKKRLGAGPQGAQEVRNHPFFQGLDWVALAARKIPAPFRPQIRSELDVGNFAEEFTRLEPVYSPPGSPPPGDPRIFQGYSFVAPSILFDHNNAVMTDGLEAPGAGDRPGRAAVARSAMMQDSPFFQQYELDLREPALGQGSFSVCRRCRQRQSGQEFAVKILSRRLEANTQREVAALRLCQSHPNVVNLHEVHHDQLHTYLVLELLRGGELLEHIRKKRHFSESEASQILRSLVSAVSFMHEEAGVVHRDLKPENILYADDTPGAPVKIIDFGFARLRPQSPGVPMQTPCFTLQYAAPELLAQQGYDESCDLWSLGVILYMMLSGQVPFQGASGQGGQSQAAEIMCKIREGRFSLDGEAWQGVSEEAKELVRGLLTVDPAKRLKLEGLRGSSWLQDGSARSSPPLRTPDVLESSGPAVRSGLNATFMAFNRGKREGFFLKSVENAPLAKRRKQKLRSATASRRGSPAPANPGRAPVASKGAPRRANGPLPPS

# Series 1 — effect on: enzyme activity; mode: inhibitor; concentration: 0.5 µM; reference: control
# Target: High affinity nerve growth factor receptor (NTRK1, Homo sapiens, UniProt P04629)
# UniProt P04629, sequence (whole entry, looked up): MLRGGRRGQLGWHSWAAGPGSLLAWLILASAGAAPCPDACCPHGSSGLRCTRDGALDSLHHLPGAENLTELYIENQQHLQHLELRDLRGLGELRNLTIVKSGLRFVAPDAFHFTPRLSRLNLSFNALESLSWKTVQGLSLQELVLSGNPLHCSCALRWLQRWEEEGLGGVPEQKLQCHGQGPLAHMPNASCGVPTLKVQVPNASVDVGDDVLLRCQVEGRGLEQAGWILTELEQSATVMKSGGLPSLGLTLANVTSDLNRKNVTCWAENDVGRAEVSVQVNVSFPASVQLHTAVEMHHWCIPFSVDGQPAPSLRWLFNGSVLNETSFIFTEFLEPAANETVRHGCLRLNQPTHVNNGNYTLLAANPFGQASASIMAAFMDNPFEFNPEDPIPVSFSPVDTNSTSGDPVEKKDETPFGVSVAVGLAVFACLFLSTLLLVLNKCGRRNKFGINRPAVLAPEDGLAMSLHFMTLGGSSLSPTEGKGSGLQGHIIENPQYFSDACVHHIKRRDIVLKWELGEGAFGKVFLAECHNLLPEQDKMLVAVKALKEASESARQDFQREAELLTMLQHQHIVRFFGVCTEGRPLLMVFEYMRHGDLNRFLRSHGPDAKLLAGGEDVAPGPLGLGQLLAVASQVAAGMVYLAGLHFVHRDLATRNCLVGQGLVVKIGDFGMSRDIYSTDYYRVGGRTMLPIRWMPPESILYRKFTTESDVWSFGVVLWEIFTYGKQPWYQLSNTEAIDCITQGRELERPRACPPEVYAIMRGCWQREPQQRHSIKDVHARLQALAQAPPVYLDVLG
Compound,remaining activity [%]
Cc1cncc2cccc(S(=O)(=O)N3CCCN(C(=O)CN)C[C@@H]3C)c12,100
CC(=O)c1ccc(N2CCOCC2)cc1O,97.2
CSc1nc(-c2ccnc(N[C@@H](C)c3ccccc3)c2)c(-c2ccc(F)cc2)[nH]1 (racemic),91.2
Nc1nc(Nc2ccc(S(N)(=O)=O)cc2)nn1C(=O)c1c(F)cccc1F,98.8
O=C1Cc2c([nH]c3ccc([N+](=O)[O-])cc23)-c2ccccc2N1,107
O=S(=O)(NCCNC/C=C/c1ccc(Br)cc1)c1cccc2cnccc12,84.9
CCCC(=O)Oc1ccc2[nH]c(C(=O)c3cc4ccccc4[nH]3)cc2c1,98.6
Oc1ccc(Nc2nc(-c3ccc(Cl)cc3)cs2)cc1,104
Nc1nccc(-c2c(-c3ccc(F)cc3)ncn2C2CCNCC2)n1,100
Cc1ccc(NC2=CC(=O)c3sc(C)nc3C2=O)cc1,80.6
CC[n+]1c(/C=C/N(C)c2ccccc2)n(-c2ccccc2)c2ccc(-c3nc4ccccc4s3)cc21,99.1
CCc1[nH]c(-c2ccc(OC)cc2)nc1-c1ccncc1,106
Cc1cc(Nc2nc(-c3ccccc3)nc3ccccc23)n[nH]1,14.6
CC#CC(=O)Nc1cc2c(Nc3ccc(F)c(Cl)c3)ncnc2cn1,98.5
O=C1NC(=O)C(c2c[nH]c3ccccc23)=C1c1c[nH]c2ccccc12,92
Nc1ncnc2c1cnn2-c1ccccc1,96.1
CC(C)(C)n1nc(Cc2cccc3ccccc23)c2c(N)ncnc21,97.8
COc1ccc(S(=O)(=O)N(CCO)c2ccccc2CN(C)CC=Cc2ccc(Cl)cc2)cc1,110
COc1cc(Nc2c(C#N)cnc3cc(OCCCN4CCN(C)CC4)c(OC)cc23)c(Cl)cc1Cl,106
N#CC(=C(N)Sc1ccc(N)cc1)c1ccccc1C(F)(F)F,109
Fc1ccc(-c2nc3n(c2-c2ccncc2)CCS3)cc1,99.5
NC(=O)c1ccc(N(C(N)=O)c2c(F)cccc2F)nc1-c1ccc(F)cc1F,96.3

# Series 2 — technique: competition with immobilised ligand; concentration: 1 µM
# Compound: CO[C@@H](C)c1c(Nc2ccc([C@H](N(C)C(=O)C3CCS(=O)(=O)CC3)C(F)(F)F)cc2)cnc2cc(Cl)nn12
target,effect on,remaining binding [%]
"Death-associated protein kinase 2 (DAPK2, Homo sapiens, UniProt Q9UIK4)",cell-free assay,86
"Receptor-interacting serine/threonine-protein kinase 2 (RIPK2, Homo sapiens, UniProt O43353)",cell-free assay,74
"Receptor tyrosine-protein kinase erbB-2 (ERBB2, Homo sapiens, UniProt P04626)",cell-free assay,59
"Ephrin type-A receptor 3 (EPHA3, Homo sapiens, UniProt P29320)",cell-free assay,97
"Serine/threonine-protein kinase pim-1 (PIM1, Homo sapiens, UniProt P11309)",cell-free assay,88
"Serine/threonine-protein kinase Nek11 (NEK11, Homo sapiens, UniProt Q8NG66)",cell-free assay,100
"Epidermal growth factor receptor (EGFR, Homo sapiens, UniProt P00533, G719S)",cell-free assay,100
"Cyclin-dependent kinase 16 (CDK16, Homo sapiens, UniProt Q00536)",cell-free assay,66
"Tyrosine-protein kinase TXK (TXK, Homo sapiens, UniProt P42681)",binding,87
"Uncharacterized serine/threonine-protein kinase SBK3 (SBK3, Homo sapiens, UniProt P0C264)",cell-free assay,84
"Insulin receptor-related protein (INSRR, Homo sapiens, UniProt P14616)",cell-free assay,94
"cAMP-dependent protein kinase catalytic subunit alpha (PRKACA, Homo sapiens, UniProt P17612)",cell-free assay,90
"Mitogen-activated protein kinase kinase kinase 10 (MAP3K10, Homo sapiens, UniProt Q02779)",cell-free assay,71
"Epidermal growth factor receptor (EGFR, Homo sapiens, UniProt P00533)",cell-free assay,93
"Mast/stem cell growth factor receptor Kit (KIT, Homo sapiens, UniProt P10721, L576P)",cell-free assay,98
"3-phosphoinositide-dependent protein kinase 1 (PDPK1, Homo sapiens, UniProt O15530)",cell-free assay,100
"Tyrosine-protein kinase Srms (SRMS, Homo sapiens, UniProt Q9H3Y6)",cell-free assay,95
"Phosphatidylinositol 5-phosphate 4-kinase type-2 beta (PIP4K2B, Homo sapiens, UniProt P78356)",cell-free assay,100
"Mast/stem cell growth factor receptor Kit (KIT, Homo sapiens, UniProt P10721, T670I/V559D)",cell-free assay,86
"TRAF2 and NCK-interacting protein kinase (TNIK, Homo sapiens, UniProt Q9UKE5)",cell-free assay,100
"Mitogen-activated protein kinase 10 (MAPK10, Homo sapiens, UniProt P53779)",cell-free assay,96
"Phosphatidylinositol 4,5-bisphosphate 3-kinase catalytic subunit alpha isoform (PIK3CA, Homo sapiens, UniProt P42336, E545A)",cell-free assay,65

# Series 3 — effect on: enzyme activity; concentration: 10 µM
# Compound: Cc1sc(C(=O)NC2COC2)cc1-n1cc(NC(=O)Nc2c(F)cccc2Cl)cn1
target,mode,reference,remaining activity [%]
"Cyclin-dependent kinase 17, with cyclin Y (CDK17, Homo sapiens, UniProt Q00537)",,untreated control,102
"Tyrosine-protein kinase Lyn (LYN, Homo sapiens, UniProt P07948)",,untreated control,103
"Testis-specific serine/threonine-protein kinase 2 (TSSK2, Homo sapiens, UniProt Q96PF2)",,untreated control,84.2
"Ribosomal protein S6 kinase alpha-4 (RPS6KA4, Homo sapiens, UniProt O75676)",,untreated control,104
"Serine/threonine-protein kinase pim-3 (PIM3, Homo sapiens, UniProt Q86V86)",,untreated control,127
"RAC-gamma serine/threonine-protein kinase (AKT3, Homo sapiens, UniProt Q9Y243)",,untreated control,94.2
"Receptor tyrosine-protein kinase erbB-2 (ERBB2, Homo sapiens, UniProt P04626)",,untreated control,63.3
"Mitogen-activated protein kinase 15 (MAPK15, Homo sapiens, UniProt Q8TD08)",,untreated control,100
"Activin receptor type-1-like (ACVRL1, Homo sapiens, UniProt P37023)",,untreated control,78.6
"Serine/threonine-protein kinase tousled-like 2 (TLK2, Homo sapiens, UniProt Q86UE8)",,untreated control,94.1
"Tyrosine-protein kinase Tec (TEC, Homo sapiens, UniProt P42680)",,untreated control,90.9
"Serine/threonine-protein kinase LATS1 (LATS1, Homo sapiens, UniProt O95835)",,untreated control,96.6
"Dual specificity protein kinase CLK1 (CLK1, Homo sapiens, UniProt P49759)",,untreated control,96.8
"BDNF/NT-3 growth factors receptor (NTRK2, Homo sapiens, UniProt Q16620)",,untreated control,83
"Dual specificity tyrosine-phosphorylation-regulated kinase 1A (DYRK1A, Homo sapiens, UniProt Q13627)",,untreated control,94.3
"Homeodomain-interacting protein kinase 1 (HIPK1, Homo sapiens, UniProt Q86Z02)",,untreated control,115
"Myosin-IIIa (MYO3A, Homo sapiens, UniProt Q8NEV4)",,untreated control,88.2
"Citron Rho-interacting kinase (CIT, Homo sapiens, UniProt O14578)",inhibitor,,98.8
"Serine/threonine-protein kinase 33 (STK33, Homo sapiens, UniProt Q9BYT3)",,untreated control,87.5

# Series 4 — effect on: enzyme activity; mode: inhibitor; concentration: 10 µM
# Target: Calcium/calmodulin-dependent protein kinase type II subunit alpha (CAMK2A, Homo sapiens, UniProt Q9UQM7)
# UniProt Q9UQM7, sequence (whole entry, looked up): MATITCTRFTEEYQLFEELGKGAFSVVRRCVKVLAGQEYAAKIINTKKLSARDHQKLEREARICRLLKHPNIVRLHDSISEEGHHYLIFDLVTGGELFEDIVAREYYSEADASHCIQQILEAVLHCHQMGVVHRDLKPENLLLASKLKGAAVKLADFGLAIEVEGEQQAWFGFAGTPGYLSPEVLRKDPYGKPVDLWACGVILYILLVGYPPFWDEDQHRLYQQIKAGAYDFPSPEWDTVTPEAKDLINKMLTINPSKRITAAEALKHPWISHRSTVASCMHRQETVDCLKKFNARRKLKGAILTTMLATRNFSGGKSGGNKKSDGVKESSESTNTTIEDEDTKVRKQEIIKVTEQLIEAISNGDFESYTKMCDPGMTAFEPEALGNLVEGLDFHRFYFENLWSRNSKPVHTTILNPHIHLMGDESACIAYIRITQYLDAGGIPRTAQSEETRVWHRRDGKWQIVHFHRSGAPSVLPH
Compound,inhibition [%]
CC(=O)c1ccc(O)cc1C,0
O=C(/C=C/c1ccc(O)cc1)c1ccc(O[C@@H]2O[C@H](CO)[C@@H](O)[C@H](O)[C@H]2O)cc1O,19
COc1ccc(-c2oc3c(CC=C(C)C)c(O[C@@H]4O[C@H](CO)[C@@H](O)[C@H](O)[C@H]4O)cc(O)c3c(=O)c2O[C@@H]2O[C@@H](C)[C@H](O)[C@@H](O)[C@H]2O)cc1,31
COc1cccc(CCc2ccccc2OCC(CN(C)C)OC(=O)CCC(=O)O)c1 (centres unmarked),-3
C[C@@]12C[C@H](c3ccoc3)O[C@@]13C[C@H](OC3=O)[C@H]1[C@H]2C[C@@H]2C[C@H]1C(=O)O2,-18
CN(C)c1cc(CNCC(C)(C)C)c(O)c2c1C[C@H]1C[C@H]3[C@H](N(C)C)C(O)=C(C(N)=O)C(=O)[C@@]3(O)C(O)=C1C2=O,-7
OCc1cc(C(O)CNCCCCCCOCCCCc2ccccc2)ccc1O (centres unmarked),0
CC(=O)O[C@H]1C[C@@H]2CC[C@@H]3[C@H](CC[C@@]4(C)[C@H]3C[C@H]([N+]3(C)CCCCC3)[C@@H]4OC(C)=O)[C@@]2(C)C[C@@H]1[N+]1(C)CCCCC1,-2
O=C1O[C@@H]([C@H](O)CO)[C@@H](O)[C@H]1O,10
NCc1ccc(C(=O)O)cc1,0
CC[C@H](C)[C@H](N)C(=O)N[C@@H](C)C(=O)N[C@@H](CCCN=C(N)N)C(=O)N[C@@H](CCCN=C(N)N)C(=O)N[C@@H](Cc1cnc[nH]1)C(=O)N1CCC[C@H]1C(=O)N[C@@H](Cc1ccc(O)cc1)C(=O)N[C@@H](Cc1ccccc1)C(=O)N[C@@H](CC(C)C)C(=O)O,8
C[C@H](CC[C@@H](O[C@@H]1O[C@H](CO[C@@H]2O[C@H](CO)[C@@H](O)[C@H](O)[C@H]2O)[C@@H](O)[C@H](O)[C@H]1O[C@@H]1O[C@H](CO)[C@@H](O)[C@H](O)[C@H]1O)C(C)(C)O)[C@H]1CC[C@@]2(C)[C@@H]3CC=C4[C@@H](CC[C@H](O[C@@H]5O[C@H](CO)[C@@H](O[C@@H]6O[C@H](CO)[C@@H](O)[C@H](O)[C@H]6O)[C@H](O)[C@H]5O)C4(C)C)[C@]3(C)[C@H](O)C[C@]12C,15
O=c1c(-c2ccc(O)cc2)coc2cc(O)ccc12,10
C[C@@H]1O[C@@H](O[C@H]2[C@H](O[C@H]3CC[C@@]4(C)[C@@H](CC[C@]5(C)[C@@H]4CC=C4[C@@H]6CC(C)(C)CC[C@]6(C(=O)O[C@@H]6O[C@H](CO[C@@H]7O[C@H](CO)[C@@H](O)[C@H](O)[C@H]7O)[C@@H](O)[C@H](O)[C@H]6O)CC[C@]45C)[C@]3(C)CO)OC[C@H](O)[C@@H]2O)[C@H](O)[C@H](O[C@@H]2O[C@H](CO)[C@@H](O[C@@H]3O[C@H](CO)[C@@H](O)[C@H](O)[C@H]3O)[C@H](O)[C@H]2O)[C@H]1O,-19

# Excerpt of the above (series 3):
target,mode,reference,remaining activity [%]
"Serine/threonine-protein kinase pim-3 (PIM3, Homo sapiens, UniProt Q86V86)",,untreated control,127
"RAC-gamma serine/threonine-protein kinase (AKT3, Homo sapiens, UniProt Q9Y243)",,untreated control,94.2
"Receptor tyrosine-protein kinase erbB-2 (ERBB2, Homo sapiens, UniProt P04626)",,untreated control,63.3
"Mitogen-activated protein kinase 15 (MAPK15, Homo sapiens, UniProt Q8TD08)",,untreated control,100
"Activin receptor type-1-like (ACVRL1, Homo sapiens, UniProt P37023)",,untreated control,78.6
"Serine/threonine-protein kinase tousled-like 2 (TLK2, Homo sapiens, UniProt Q86UE8)",,untreated control,94.1
"Tyrosine-protein kinase Tec (TEC, Homo sapiens, UniProt P42680)",,untreated control,90.9
"Serine/threonine-protein kinase LATS1 (LATS1, Homo sapiens, UniProt O95835)",,untreated control,96.6
"Dual specificity protein kinase CLK1 (CLK1, Homo sapiens, UniProt P49759)",,untreated control,96.8
"BDNF/NT-3 growth factors receptor (NTRK2, Homo sapiens, UniProt Q16620)",,untreated control,83
"Dual specificity tyrosine-phosphorylation-regulated kinase 1A (DYRK1A, Homo sapiens, UniProt Q13627)",,untreated control,94.3
